Experimental data collected from several papers.
Numbered parts are unrelated; each lists some results of a single study.

Block 1
Target: RNA binding protein fox-1 homolog 2, RRM domain, GST-SBP tag (RBFOX2, Homo sapiens, UniProt O43251-10, residues 100-194)
Method: RNA Bind-n-Seq
Form: RNA
Sample: in vitro
Tested at: 365 nM
Notes: natural RNA segment, single round, ends assumed
Reference: no-protein control
Reading: higher = stronger binding
Endpoint: RBNS enrichment (R)
Target sequence (chain): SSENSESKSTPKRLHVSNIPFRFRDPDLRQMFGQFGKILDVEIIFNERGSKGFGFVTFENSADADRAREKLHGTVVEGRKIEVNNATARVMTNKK
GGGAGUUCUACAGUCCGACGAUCCAGCAAUAUAGGACUGUUGAACAAUCCCGGUGUGUCAGGACCCCCAAAUGUCACUUCUGCAUAAAGCAUGUAUGUCAUCUAUUUUUUCUUCAAUAAAGAGAUUUAAUAGCUGGAAUUCUCGGGUGCCAA: 5.66
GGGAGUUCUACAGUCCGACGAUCUUUCAAUUGUAGAAUUUGGAAUCUGGAAUACAGAAUUGGGAAGAAGAACAGAGAUGACAAAAGACCACUUGAAGAGAGGUUCCUAAUACUAGACAGAUGGAGAGUGGCUUUGGAAUUCUCGGGUGCCAA: 0.614
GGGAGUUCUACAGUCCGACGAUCGAAGCAUCCAAUGAUUUUUCCCUCCACUGCUGUUAAUUAAUGUCACUUCCAAGAAGAAAAACUGUUCUGUUGUAAAAAAUAUAAUUGCUCUUAAUUCUUGGGGAGGUUACUGGAAUUCUCGGGUGCCAA: 0.32
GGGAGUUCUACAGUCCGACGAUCUUUUAUACAAAUAAAUGUAAAUGUAGUUAAAUGAUACAGUAUUUAAUAAAGUGUUCCUUUUCAAGUGUGUACUUCAUUUUGUUUAACCUGGUAGUAAAACCAAACUUUUGUGGAAUUCUCGGGUGCCAA: 0.459
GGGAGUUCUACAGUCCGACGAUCCCUGGGCAUCUGGGGACAGGAACACCUCUCAGGGUGGCCAAGAGGGGCUUCCUUGGGACCAGUGCAAGGAAGUUCUGCUGUCCCUGGGAAGUCUCAGAACCAGGAAGGAAUGGAAUUCUCGGGUGCCAA: 0.325
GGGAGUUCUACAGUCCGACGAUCGUGACCCCAGCCCAGCCUAGUGUCACUUUAGGCCUGACGUUUGAGCAACCCUCGGCUCUUGCCAAGGCACCACAGAAUGCACUUGCUCAUGCCCUGUGCCUCUUGAGCAGUGGAAUUCUCGGGUGCCAA: 0.189
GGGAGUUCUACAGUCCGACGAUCUAGCCAAGUUGUGUACCUCAGUCUUUAGUUUCCAAGCGGCUCUCUUGCUCAAUACAAUGUGCAUUUCAAAAUAACACUGUAGAGUUGACAGAACUGGUUCAUGUGUUAUGUGGAAUUCUCGGGUGCCAA: 0.304
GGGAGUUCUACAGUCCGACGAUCGGAUUCUGGCUUCAAGGCUGGACACCUGAACUAUUUACAAAGACAGUUUUAAGAAUAUGAAAUUAAGUUCAGGGCCCCGGAAGCUUCUUGAGCGACAUAGCCAGUCCGCCUGGAAUUCUCGGGUGCCAA: 0.258

Block 2
Target: Ras GTPase-activating protein-binding protein 1, full length (G3BP1, Homo sapiens, UniProt Q13283)
UniProt Q13283, sequence (whole entry, looked up): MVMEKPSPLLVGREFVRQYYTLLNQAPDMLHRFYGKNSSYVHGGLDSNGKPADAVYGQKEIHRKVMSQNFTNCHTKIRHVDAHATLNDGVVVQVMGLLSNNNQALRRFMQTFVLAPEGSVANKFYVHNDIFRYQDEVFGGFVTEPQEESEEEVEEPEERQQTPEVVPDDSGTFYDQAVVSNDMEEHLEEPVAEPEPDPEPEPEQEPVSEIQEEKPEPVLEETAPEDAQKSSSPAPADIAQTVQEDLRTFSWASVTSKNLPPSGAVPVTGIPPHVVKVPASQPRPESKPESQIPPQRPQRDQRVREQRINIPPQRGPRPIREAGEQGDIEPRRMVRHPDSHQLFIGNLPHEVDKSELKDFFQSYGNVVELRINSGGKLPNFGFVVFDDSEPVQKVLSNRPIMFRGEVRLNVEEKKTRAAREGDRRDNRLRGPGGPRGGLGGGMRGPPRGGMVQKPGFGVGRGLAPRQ
Method: RNA Bind-n-Seq
Form: RNA
Sample: in vitro
Tested at: 200 nM
Notes: whole 134-nt RNA, ends assumed
Added: 150 mM KCl
Reference: input library
Reading: higher = stronger binding
Endpoint: log2 enrichment
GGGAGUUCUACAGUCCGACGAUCCAAGUCCUGUGCUACACAUCGUAUGUACCGAAUCGGGUGGGAAAAAAAGGGAGGGAAAGUAUUAUGUUACGCCGUUCGGAUCUGCACUUCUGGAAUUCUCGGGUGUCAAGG: 0.48
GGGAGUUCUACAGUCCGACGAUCCCUGUGCUACACAUCGUAUGUACCGAAUCGGAAAAAAAGGGGAAAAAAAGGAAAAAAAGGAAAGUAUUAUGUUACGCCGUUCGGAUCUGCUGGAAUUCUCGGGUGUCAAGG: -0.772
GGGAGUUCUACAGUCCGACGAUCAGUCCUGUGCUACACAUCGUAUGUACCGAAUCGGAAAAAGGGGAAAAAGGGAAAAAGGAAAGUAUUAUGUUACGCCGUUCGGAUCUGCACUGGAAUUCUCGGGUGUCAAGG: -0.928
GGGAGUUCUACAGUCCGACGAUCUCAAGUCCUGUGCUACACAUCGUAUGUACCGAAUCGGAAAAAGGAGGAAAAAGGAAAGUAUUAUGUUACGCCGUUCGGAUCUGCACUUCCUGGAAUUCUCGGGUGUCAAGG: -0.887
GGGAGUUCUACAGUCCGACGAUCACCAUGCAGGUGAAAAUCUUUGGGAAGUGGGGCAAGGGGGGGAUAGGGAGGGGGGUAACACUUUGGGAACAGGUGGUCCCAGGUCGUUUCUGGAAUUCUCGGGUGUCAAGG: 0.689
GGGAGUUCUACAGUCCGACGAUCUGUGCUACACAUCGUAUGUACCGAAUCGGUUUUUUUGGGGUUUUUUUGGGGUUUUUUUGGGGAAAGUAUUAUGUUACGCCGUUCGGAUCUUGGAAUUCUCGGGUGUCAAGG: -0.844
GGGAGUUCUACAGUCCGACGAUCCCUGUGCUACACAUCGUAUGUACCGAAUCGGGAAAAAAAGGGUUUUUUUGGGAAAAAGGGAAAGUAUUAUGUUACGCCGUUCGGAUCUGCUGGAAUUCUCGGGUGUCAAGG: -1.08
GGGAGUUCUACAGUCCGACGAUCCAAGUCCUGUGCUACACAUCGUAUGUACCGAAUCGGGUUUGGUUUGGGUUUGGGGAAAGUAUUAUGUUACGCCGUUCGGAUCUGCACUUCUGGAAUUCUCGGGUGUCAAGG: -0.183
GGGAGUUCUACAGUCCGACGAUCACCAUGCAGGUGGGCAUCUUUGGGAAGUGGGGCAAGGGGGGGAUAGGGAGGGGGGUAACACUUUGGGAACAGGUGGUCCCAGGGCGUUUCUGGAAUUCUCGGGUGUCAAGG: 1.23

Block 3
Target: Sal-like protein 4, full length isoform B (SALL4, Homo sapiens, UniProt Q9UJQ4-2, residues 1-616)
Method: universal PBM
Form: double-stranded DNA, one strand shown
Sample: in vitro
Tested at: not given
Notes: 8-mer, flanks averaged, mean of replicates
Reading: higher = stronger binding
Endpoint: E-score
GTCCGTAA: -0.108
GCTCAGTA: 0.0705
AAGTGCAT: 0.18
ACCGAGGA: -0.0874
AGGCCGTG: -0.219
GTCGGTGA: -0.176
CGCTCTGC: -0.176
AGAAGCAC: -0.0658
GGGCCACC: -0.362
CTTTTGAC: 0.0565
CCCTCTGA: -0.0352
GGCGTCTA: -0.15
CTTAAGTA: 0.152
ACGATGAG: 0.0933
AAAGATCC: -0.0271
CTTACGAC: 0.0335
CTGTGTGC: -0.198
GAGCTAGA: -0.0925

Block 4
Target: Interferon regulatory factor 7, full length, phosphomimetic (IRF7, Homo sapiens, UniProt Q92985, residues 1-503, S101K/S471D/S472D/S475D/S476D/S477D/S483D/S484D/S487D)
Method: protein-binding microarray
Form: double-stranded DNA, one strand shown
Sample: in vitro
Tested at: 250 nM
Notes: 60-bp whole probe
Added: salmon DNA 0.4 mg/ml
Reference: random background probes
Reading: higher = stronger binding
Endpoint: log fluorescence
Constant ends, left off below: GCCTAGCAC … GTCTTGATTCGCTTGACGCTGCTG
Target sequence (chain): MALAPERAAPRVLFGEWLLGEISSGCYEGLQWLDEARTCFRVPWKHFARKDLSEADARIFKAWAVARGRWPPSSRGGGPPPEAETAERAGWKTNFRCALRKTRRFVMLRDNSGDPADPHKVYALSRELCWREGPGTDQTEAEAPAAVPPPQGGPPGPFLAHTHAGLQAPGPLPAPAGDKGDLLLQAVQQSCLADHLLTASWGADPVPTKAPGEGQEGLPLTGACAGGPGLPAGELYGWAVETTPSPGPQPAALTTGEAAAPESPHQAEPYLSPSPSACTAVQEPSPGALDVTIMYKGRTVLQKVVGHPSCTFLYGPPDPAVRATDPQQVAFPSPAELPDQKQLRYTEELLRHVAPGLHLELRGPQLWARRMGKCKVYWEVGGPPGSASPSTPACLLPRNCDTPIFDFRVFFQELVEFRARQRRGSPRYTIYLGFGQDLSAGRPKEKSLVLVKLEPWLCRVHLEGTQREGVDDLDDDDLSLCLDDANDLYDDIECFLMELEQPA
ATAGGACTGGGGTTTCGGTTAGTGCTA: 5.22 z-score
TTACGACTGCTTTTCCTTTAGTGCTAG: 0.404 z-score
ATTTTTTTCTAAGTAAACCCGTGCTAG: 0.858 z-score
CACAGAATCCCCTTCTACTCGTGCTAG: 0.203 z-score
TCATATTTAAGGCTAGGACTGTGCTAG: 0.498 z-score
GACGGAATCGGACTGGGGACGTGCTAG: -0.4 z-score
GACGATCTCAGTACCGAGACGTGCTAG: -0.0878 z-score
AACACAAACCCGCTGGAGTTGTGCTAG: -0.32 z-score
TTAGATGTCAGTATCGATTAGTGCTAG: 0.565 z-score
TTGGGACTGCTTATCCTTTAGTGCTAG: -0.374 z-score
TTAGGTATCCTACTGCATTAGTGCTAG: -0.351 z-score
TTAGGTTACCTTTCCCTTTAGTGCTAG: 1.44 z-score
TTAGAACGGGGGACTGGATTAGTGCTA: 0.869 z-score
TAAGAACTGAGTCTCGATTAGTGCTAG: 1.73 z-score
TTAGGTCTCGGTTACGGTTAGTGCTAG: 2.71 z-score
AGTCCTGTCCAAGATGAGGAGTGCTAG: 0.275 z-score

For quick reference, copied from above (block 3):
CTTAAGTA: 0.152
ACGATGAG: 0.0933
AAAGATCC: -0.0271
